Assay results gathered from unrelated publications.
Every numbered part comes from another study and shows a few of its results, in no order. Changes are numbered by the printed parent chain.

Set 1
Target: CCND2, cyclin fold, Cln2 fusion (human)
Method: yeast growth competition, sequencing
Matrix: yeast
Setting: weak parent motif
Relative to: not given
Direction: higher = stronger binding
Parent: WEE1 docking peptide (human); HKTFRKLRLFDTP; partner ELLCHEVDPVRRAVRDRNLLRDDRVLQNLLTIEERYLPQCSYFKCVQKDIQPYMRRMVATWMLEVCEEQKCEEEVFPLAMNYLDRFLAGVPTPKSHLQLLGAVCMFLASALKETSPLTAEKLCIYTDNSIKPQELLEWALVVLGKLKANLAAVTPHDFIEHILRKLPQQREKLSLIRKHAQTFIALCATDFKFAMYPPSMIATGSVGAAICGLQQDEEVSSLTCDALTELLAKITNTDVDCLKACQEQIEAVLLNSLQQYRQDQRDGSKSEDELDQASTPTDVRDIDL
Change	normalised enrichment score
F10L	-0.0308
K2I	0.0733
D11R	0.0944
L7A	-0.169

Set 2
Target: Centromere-binding protein 1, full length, N-terminal tag (CBF1, Saccharomyces cerevisiae, UniProt P17106, residues 1-351)
UniProt P17106, sequence (whole entry, looked up): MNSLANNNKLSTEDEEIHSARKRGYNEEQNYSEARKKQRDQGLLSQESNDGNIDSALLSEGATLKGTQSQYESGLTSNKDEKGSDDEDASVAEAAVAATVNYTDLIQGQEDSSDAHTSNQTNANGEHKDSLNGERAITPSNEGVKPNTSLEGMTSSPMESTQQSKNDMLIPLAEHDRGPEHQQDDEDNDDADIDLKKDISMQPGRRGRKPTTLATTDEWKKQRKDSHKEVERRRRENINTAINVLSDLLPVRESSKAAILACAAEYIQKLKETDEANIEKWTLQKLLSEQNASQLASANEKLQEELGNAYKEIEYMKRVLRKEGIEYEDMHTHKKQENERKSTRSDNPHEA
Method: protein-binding microarray
Form: double-stranded DNA, one strand shown
Matrix: in vitro
Tested at: 0.8 µM
Setting: whole 60-bp probe, no competitor
Direction: higher = stronger binding
Constant ends, left off below: … GTCTTGATTCGCTTGACGCTGCTG
Sequence	fluorescence intensity [a.u.]
CTACAGAAAAGCTGACACGTTTCTCCCACTGTATTC	618
GAAGTGACGCCCTGTTAGGTGACATTAGAAAGGTAG	531
GAACTAGAATTAAGTGAGGTGACAAGGTTTCCATAG	520
CTAAACGTAAATACCAACGTGTGCTATCGCATTTTC	542
CTAAGACCCTTGCAGCACGTTTTTTTCAGGCTCTTC	723
CTAACTAGAAGCGATAACATCACAGTTATACGTTTC	496

Set 3
Target: Histone acetyltransferase KAT6A, both winged helices, GST fusion (KAT6A, Homo sapiens, UniProt Q92794, residues 1-181)
Method: protein binding microarray
Form: double-stranded DNA, one strand shown
Matrix: in vitro
Tested at: not given
Setting: 8-mer, flanks averaged, mean of 2 arrays, mostly near background
Relative to: not given
Direction: higher = stronger binding
Target sequence (chain): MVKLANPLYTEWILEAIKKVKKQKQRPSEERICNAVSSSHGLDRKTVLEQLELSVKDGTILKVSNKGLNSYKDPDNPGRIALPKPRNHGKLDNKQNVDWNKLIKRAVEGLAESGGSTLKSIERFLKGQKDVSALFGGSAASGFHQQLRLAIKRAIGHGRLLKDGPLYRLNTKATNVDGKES
Sequence	E-score
CAGCAAGG	-0.206
CCAAGACG	-0.0245
ATTGGACC	-0.012
ATTCGTGA	-0.148
AGCGGGAG	0.18
TAATTACA	-0.136
ACTTCTGA	-0.166

Further values, each from its own experiment
Substance	target	assay	system	conditions	how to read	quantity	result
PhoQ, residues 284 288 289 292 302 303 DDMDFR	PhoP, residues 12 14 15 18 19 HLGGL (Escherichia coli, UniProt P23836)	Sort-seq, measured: YFP reporter	E. coli	PhoQ-PhoP variant library, together with: 10 µM Mg2+	relative to: high Mg2+ state, higher = stronger signaling	fold induction	0.849

Repeated from above (set 1):
Change	normalised enrichment score
K2I	0.0733
D11R	0.0944
